Assay results collected from several papers.
Numbered parts are unrelated; each lists some results of a single study. Positions count from the first letter of the parent shown.

Series 1 — method: RNA Bind-n-Seq; molecule type: RNA; medium: in vitro; tested at: 365 nM; reference: no-protein control; direction: higher = stronger binding
Target: RNA binding protein fox-1 homolog 2, RRM domain, GST-SBP tag (RBFOX2, Homo sapiens, UniProt O43251-10, residues 100-194)
Notes: natural RNA segment, single round, ends assumed
Construct (chain): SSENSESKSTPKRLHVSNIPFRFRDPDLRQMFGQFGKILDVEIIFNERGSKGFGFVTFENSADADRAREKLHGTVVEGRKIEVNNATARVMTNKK
Oligonucleotide	RBNS enrichment (R)
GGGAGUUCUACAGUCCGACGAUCGAUCUUUUUUUUUUUUUUUUUUAAAGAAGAAAAGAAAGAAACGAAAAGAAAAAGCUGAAGAAAUCAAGAACCAAUUGAAAUUCCUUUGGACACUUUUUUUUUUUUGUCUGUGGAAUUCUCGGGUGCCAA	0.457
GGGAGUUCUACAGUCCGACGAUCAUUUAUUUUUCUAUUAUAGCCAUAUUUAUAUAUUUAUGCACUUGUAAAUAAAUGUAUAUGUGUUUCUAUAAUUCUGGAGAGAUAUGGAAUCCUCCCCUUUCUGGCACAAGUGGAAUUCUCGGGUGCCAA	0.585
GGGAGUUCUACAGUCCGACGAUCUGGGGAGGGGUUCUUUAGACUCUUGAAGGCAACUCAGGGUAUUGUCCACCCAGCUAUGUAGUUAGACUUCUCCCAGGGAAUGAGUGUGGCAUUUCCUUCAUAGAUAGACCUGGAAUUCUCGGGUGCCAA	0.929
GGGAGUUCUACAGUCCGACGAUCCCUUGUUUUUCACAUUGGGAACCCUAACAUUACCAGGGAUGCUACUUACCACAAUUUGUAACCCUGAAUCUCUCCUGUGCUCUGGUGUUCAGAAAGCUGAGACAGCUGGGUGGAAUUCUCGGGUGCCAA	0.271
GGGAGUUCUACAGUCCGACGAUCCAUUCUUUUGUGAGUUUUGCAGCAGUCUUGAAUAAUACAGAUUAUAACUACUGAAAGGGGAACCUUCGUCUUUUUAAAUGUGUUAUUUCACAUUACAAUAAUAUGUGUAGUGGAAUUCUCGGGUGCCAA	0.406
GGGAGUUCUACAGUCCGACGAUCAGUGAGGCUGGAGAAAUGGCUUAGAGGUUAAGAGUGUGGACUGUUCUUGCGUAGUUAUGACCAUUGAAUUUAGUUCCCAACAUUCUUUUUGGGUGGCUCGAAACUUCCUGUGGAAUUCUCGGGUGCCAA	0.493
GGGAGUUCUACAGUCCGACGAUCAUGAUAGACAAAUACCCAGUGUUUGUUACUUUUUCCAACUACCACUGUAAUGAUAAUCUUUCUCACGUAUAUACAUGCAACUUCUUGGCUUCAUUUCCAUGAAGCUGUUUUGGAAUUCUCGGGUGCCAA	0.264
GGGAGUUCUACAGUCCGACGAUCAGAGCAGACUUUCAGCAGAGACUGUCCAGUGAGUCAUUGAAGACUUGUCAGACCAUCAAUCUCUUGGGGUGAUUAAUCAAAUUACCCACCCAAGGCUUCUAGAAGGAGCUUGGAAUUCUCGGGUGCCAA	0.249

Series 2 — method: universal PBM; molecule type: double-stranded DNA, one strand shown; medium: in vitro; tested at: 600 nM; direction: higher = stronger binding
Target: Sal-like protein 4, full length isoform A (SALL4, Homo sapiens, UniProt Q9UJQ4, residues 1-1053)
UniProt Q9UJQ4, sequence (whole entry, looked up): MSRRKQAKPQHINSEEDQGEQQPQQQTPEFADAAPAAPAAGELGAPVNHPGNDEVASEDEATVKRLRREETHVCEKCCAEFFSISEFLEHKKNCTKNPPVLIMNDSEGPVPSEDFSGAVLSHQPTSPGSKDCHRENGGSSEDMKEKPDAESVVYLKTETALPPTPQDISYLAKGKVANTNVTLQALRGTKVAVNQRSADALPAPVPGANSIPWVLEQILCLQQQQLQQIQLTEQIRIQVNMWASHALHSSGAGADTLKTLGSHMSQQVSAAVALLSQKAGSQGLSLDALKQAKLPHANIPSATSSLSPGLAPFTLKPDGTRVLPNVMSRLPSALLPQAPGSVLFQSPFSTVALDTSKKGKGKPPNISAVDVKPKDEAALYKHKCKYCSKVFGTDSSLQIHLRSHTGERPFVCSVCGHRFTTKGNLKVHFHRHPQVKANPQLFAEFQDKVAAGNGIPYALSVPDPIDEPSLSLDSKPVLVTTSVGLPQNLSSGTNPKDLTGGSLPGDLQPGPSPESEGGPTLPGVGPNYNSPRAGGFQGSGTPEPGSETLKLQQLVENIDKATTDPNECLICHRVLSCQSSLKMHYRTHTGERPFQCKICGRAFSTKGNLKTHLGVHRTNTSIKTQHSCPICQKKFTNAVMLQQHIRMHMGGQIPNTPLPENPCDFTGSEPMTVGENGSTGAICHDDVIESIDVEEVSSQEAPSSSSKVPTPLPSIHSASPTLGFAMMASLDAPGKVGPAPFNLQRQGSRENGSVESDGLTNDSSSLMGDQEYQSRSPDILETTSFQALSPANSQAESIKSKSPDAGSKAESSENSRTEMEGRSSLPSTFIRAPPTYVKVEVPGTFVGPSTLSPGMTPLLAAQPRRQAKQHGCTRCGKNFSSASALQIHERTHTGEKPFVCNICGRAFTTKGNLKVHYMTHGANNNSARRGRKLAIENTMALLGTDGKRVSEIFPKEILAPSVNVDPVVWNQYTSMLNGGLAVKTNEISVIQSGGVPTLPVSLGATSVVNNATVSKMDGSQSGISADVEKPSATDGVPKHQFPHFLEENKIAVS
Notes: 8-mer, flanks averaged, mean of replicates
Oligonucleotide	E-score
CGTTCAAG	-0.0135
CAACTAAG	-0.00218
ATTCAAAT	0.334
AGTGCAAT	0.168
ACAAGCCT	-0.0315
AAGGACTC	-0.0792
AGACATCT	0.0809
CGTCCAAG	-0.251
CTCGGCTC	-0.3
AAGGATGA	0.21
GAGTTTCA	-0.0235
ACACACTA	0.0686
ACTGGTTG	-0.0921
GTATTCTA	0.221
CCCGCCCG	-0.32
AAGGCCAG	-0.0897
GTGTGTAA	0.118
CAATTAAC	0.255
GACCCTGA	-0.25
TAGTTCAA	0.0376
AACGATAC	0.125

Series 3 — target: CEBPA, bZIP domain (human); method: DHFR protein complementation; medium: yeast; reference: wild-type JUN-FOS pair; direction: higher = stronger binding
Notes: single substitutions, most at no-binding floor
Starting sequence: JUN, bZIP domain (human); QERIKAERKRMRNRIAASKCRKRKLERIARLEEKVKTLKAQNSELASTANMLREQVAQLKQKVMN; partner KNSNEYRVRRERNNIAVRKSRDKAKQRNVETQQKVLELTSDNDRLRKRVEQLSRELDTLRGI
Variant	binding fitness [natural log]
R53N	-1.48
E54V	-1.41
V56N	-1.44
T37S	-1.42
A46T	-1.38
I28M	-1.35
Q41K	-1.44
E54M	-1.46
V56K	-1.64
A57Q	-1.41
S47P	-1.56
A49P	-1.47
K34E	-1.42
L31S	-1.32
L52G	-1.49
A46D	-1.37
T37K	-1.4
A40M	-1.4
A29P	-1.42
V56T	-1.48

Series 4 — target: CCNA2, cyclin fold, Cln2 fusion (human); method: yeast growth competition, sequencing; medium: yeast; notes: weak parent motif; reference: not given; direction: higher = stronger binding
Starting sequence: E2F7 docking peptide (human); SSAQRRLEIPSGG
Variant	normalised enrichment score
R5A	0.295
G13A	0.569
L7A	0.114
R5K I9F	3.52
G12A	0.253
R5K I9L	0.429
S1A	0.996
I9F	5.1
E8A	0.762
R5A L7A	-0.0774

Series 5 — method: DHFR PCA, deep sequencing; medium: yeast; with: (+)-ABA 0.0091 µM; reference: wild-type fitted maximum; direction: higher = stronger binding
Target: ABI1, truncated, D143A, DHFR fusion (Arabidopsis thaliana)
Notes: methotrexate growth selection, single substitutions
Starting sequence: PYL1, truncated, DHFR fusion (Arabidopsis thaliana); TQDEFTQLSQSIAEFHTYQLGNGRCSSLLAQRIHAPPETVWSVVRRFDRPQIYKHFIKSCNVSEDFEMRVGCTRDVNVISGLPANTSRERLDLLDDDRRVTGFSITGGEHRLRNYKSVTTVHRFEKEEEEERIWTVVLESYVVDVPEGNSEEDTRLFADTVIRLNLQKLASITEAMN
Variant	relative binding score
N77H	60.6%
T120N	-2.71%
T119D	-2.87%
T160I	-3.75%
N149A	44.9%
G23Q	4.61%
F15W	27.6%
L164M	15.3%
T86M	25%
G81H	1.5%
E152W	2.71%
D95S	-5.16%
G71H	-0.986%
E67H	5.99%
T173A	27.1%
I172R	-2.71%
R111S	5.91%
C25T	51.2%
T73M	32.6%
T6Y	33.7%
A84W	109%
L29C	29.7%

Some of these lines once more (series 2):
Oligonucleotide	E-score
CTCGGCTC	-0.3
AAGGATGA	0.21
GAGTTTCA	-0.0235
ACACACTA	0.0686
ACTGGTTG	-0.0921
GTATTCTA	0.221
CCCGCCCG	-0.32
AAGGCCAG	-0.0897
GTGTGTAA	0.118
CAATTAAC	0.255
GACCCTGA	-0.25
TAGTTCAA	0.0376
